Assay results gathered from unrelated publications.
pKd: −log10 of the molar value.
UniProt P21784, sequence (whole entry, looked up): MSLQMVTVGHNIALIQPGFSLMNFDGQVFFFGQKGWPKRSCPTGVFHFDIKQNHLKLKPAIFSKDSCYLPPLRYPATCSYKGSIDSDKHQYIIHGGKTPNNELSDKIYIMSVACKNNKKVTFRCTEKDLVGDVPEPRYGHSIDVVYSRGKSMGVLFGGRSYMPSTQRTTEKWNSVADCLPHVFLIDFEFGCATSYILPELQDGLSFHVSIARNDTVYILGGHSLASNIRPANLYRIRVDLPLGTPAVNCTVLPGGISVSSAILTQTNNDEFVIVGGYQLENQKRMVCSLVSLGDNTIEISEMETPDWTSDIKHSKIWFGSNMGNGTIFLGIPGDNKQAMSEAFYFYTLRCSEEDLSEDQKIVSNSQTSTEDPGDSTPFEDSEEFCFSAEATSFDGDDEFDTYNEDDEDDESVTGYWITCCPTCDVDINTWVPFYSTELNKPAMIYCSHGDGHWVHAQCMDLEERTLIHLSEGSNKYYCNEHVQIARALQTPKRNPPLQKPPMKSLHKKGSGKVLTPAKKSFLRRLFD
UniProt Q56UN5, sequence (whole entry, looked up): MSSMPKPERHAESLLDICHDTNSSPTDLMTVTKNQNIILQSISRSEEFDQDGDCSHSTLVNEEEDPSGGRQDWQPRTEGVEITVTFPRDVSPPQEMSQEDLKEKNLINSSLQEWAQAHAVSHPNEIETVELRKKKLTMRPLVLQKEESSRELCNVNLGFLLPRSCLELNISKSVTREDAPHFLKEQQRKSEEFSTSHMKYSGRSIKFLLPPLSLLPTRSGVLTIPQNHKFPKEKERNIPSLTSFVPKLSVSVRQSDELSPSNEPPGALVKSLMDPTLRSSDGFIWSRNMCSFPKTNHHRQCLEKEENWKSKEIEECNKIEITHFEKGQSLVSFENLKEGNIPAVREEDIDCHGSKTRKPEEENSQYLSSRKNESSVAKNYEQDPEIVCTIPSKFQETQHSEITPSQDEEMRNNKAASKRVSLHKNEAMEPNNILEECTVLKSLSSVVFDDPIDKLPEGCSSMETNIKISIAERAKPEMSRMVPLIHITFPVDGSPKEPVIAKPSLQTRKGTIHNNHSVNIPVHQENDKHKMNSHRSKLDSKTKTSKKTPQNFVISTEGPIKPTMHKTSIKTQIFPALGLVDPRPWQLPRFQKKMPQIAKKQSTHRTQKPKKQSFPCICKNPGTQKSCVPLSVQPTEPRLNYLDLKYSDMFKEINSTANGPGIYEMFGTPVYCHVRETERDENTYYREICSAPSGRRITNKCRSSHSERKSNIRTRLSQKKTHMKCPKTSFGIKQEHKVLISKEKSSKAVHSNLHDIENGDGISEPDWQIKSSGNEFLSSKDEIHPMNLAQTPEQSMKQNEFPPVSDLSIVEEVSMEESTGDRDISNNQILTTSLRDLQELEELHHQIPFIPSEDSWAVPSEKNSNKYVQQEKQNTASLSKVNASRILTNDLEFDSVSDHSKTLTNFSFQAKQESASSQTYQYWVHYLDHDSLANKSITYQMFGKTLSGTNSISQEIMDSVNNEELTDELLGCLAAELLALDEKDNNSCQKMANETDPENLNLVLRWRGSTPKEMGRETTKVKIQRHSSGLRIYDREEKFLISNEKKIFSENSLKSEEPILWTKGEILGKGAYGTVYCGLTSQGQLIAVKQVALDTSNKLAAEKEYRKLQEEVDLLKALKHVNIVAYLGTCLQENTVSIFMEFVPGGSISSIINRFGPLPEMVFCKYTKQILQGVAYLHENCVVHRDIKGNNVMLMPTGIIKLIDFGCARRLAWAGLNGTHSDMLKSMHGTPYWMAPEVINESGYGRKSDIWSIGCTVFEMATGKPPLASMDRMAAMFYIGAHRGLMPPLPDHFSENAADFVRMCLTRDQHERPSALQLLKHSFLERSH
UniProt O96013, sequence (whole entry, looked up): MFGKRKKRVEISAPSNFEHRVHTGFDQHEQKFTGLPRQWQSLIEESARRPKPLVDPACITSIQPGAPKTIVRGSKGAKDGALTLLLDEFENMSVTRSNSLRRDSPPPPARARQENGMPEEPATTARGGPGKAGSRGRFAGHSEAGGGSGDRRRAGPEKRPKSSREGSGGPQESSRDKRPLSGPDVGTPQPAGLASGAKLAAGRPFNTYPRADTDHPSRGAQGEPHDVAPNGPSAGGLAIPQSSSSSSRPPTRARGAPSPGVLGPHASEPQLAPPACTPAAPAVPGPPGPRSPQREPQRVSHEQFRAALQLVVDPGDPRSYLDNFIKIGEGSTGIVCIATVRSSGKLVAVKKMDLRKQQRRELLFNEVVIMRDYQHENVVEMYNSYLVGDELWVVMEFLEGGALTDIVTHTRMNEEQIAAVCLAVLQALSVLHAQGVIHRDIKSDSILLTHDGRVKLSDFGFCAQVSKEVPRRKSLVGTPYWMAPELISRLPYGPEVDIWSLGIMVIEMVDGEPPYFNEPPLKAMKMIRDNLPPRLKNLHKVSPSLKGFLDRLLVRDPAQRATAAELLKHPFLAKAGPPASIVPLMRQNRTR
UniProt P0DMV8, sequence (whole entry, looked up): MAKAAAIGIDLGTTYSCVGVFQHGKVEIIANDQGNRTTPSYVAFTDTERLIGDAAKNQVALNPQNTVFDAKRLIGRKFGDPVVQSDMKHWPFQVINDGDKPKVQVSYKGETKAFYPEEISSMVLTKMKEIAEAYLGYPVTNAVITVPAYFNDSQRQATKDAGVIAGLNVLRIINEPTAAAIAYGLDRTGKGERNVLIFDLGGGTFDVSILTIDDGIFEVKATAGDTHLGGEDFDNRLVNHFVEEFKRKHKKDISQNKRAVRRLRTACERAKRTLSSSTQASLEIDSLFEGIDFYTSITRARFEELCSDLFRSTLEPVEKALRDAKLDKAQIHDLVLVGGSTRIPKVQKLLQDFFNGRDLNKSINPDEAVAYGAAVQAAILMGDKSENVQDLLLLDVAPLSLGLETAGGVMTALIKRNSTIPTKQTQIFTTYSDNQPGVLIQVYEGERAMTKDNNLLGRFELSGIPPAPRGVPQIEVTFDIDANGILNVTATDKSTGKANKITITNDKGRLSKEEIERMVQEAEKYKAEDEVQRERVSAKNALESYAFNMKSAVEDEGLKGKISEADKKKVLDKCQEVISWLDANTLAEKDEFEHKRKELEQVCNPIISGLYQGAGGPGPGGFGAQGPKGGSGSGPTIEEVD
UniProt P61981, sequence (whole entry, looked up): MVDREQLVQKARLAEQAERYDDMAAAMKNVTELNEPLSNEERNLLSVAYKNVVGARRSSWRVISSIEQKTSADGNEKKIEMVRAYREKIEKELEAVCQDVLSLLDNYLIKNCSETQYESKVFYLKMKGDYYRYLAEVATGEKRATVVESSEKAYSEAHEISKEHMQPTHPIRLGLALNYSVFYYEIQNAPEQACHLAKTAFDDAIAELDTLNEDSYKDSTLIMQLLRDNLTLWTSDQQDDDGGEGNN
UniProt P00811, sequence (whole entry, looked up): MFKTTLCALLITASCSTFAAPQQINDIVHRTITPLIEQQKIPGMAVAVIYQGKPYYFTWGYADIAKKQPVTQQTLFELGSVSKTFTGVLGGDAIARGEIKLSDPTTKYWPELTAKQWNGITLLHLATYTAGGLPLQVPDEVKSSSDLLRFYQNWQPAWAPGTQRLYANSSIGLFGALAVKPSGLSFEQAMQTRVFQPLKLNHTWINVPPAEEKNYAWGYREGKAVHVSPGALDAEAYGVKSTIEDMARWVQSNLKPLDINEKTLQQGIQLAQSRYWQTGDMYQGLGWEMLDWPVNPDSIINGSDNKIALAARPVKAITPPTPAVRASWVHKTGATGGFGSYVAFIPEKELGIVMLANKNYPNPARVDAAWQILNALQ
UniProt Q9VK33, sequence (whole entry, looked up): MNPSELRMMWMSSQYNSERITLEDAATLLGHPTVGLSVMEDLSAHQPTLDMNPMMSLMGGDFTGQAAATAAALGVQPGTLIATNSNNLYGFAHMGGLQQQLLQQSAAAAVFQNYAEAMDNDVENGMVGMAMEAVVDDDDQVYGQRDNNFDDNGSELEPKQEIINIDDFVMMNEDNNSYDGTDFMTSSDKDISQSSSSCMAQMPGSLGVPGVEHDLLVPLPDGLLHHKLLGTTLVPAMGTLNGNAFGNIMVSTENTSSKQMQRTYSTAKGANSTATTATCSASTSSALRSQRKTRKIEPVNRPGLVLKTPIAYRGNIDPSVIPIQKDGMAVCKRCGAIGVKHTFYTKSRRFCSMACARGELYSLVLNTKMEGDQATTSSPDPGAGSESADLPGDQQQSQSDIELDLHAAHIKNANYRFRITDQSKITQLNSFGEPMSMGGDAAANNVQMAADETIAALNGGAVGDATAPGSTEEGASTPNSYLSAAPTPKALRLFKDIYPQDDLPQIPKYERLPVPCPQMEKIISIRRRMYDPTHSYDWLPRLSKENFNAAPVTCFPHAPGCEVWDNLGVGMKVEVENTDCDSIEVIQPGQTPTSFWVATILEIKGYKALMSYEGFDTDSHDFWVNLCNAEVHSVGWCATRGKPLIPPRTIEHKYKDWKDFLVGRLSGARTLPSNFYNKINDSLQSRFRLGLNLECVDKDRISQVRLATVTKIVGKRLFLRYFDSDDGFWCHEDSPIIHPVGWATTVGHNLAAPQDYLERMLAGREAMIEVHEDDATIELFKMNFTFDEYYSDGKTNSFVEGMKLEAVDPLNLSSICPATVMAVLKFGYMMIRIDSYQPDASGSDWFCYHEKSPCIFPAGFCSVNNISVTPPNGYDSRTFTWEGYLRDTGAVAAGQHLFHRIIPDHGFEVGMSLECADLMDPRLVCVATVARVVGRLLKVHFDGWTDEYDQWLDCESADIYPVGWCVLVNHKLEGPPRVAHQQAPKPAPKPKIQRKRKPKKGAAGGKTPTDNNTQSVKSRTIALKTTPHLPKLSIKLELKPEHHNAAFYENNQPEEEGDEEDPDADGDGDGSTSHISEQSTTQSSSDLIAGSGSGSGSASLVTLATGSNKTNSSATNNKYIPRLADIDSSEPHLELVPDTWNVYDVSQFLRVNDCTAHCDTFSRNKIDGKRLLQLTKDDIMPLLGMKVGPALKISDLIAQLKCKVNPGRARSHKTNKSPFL

| SMILES | target | assay | setting | pKd |
| --- | --- | --- | --- | --- |
| O=C(N[C@@H]1c2ccccc2C[C@H]1N1CCCC1)c1ccc(-c2ccnc3[nH]ccc23)nc1 | MAP3K19 (Homo sapiens, UniProt Q56UN5) | binding, competition with immobilised ligand | – | 6.73 |
| CC(C)C[C@H](NC(=O)[C@H](CCC(=O)O)NC(=O)[C@@H](N)Cc1ccccc1)C(=O)N[C@@H](CCC(=O)O)C(=O)N[C@@H](CCCNC(=N)N)C(=O)N[C@@H](CCCNC(=N)N)C(=O)N[C@@H](Cc1ccccc1)C(=O)N[C@@H](CCCCN)C(=O)N[C@@H](CCC(N)=O)C(=O)N[C@@H](CCC(N)=O)C(=O)O | PDE1C promoter DNA | binding, microscale thermophoresis | – | 5.41 |
| CC(C)C[C@H](NC(=O)[C@H](CCP(=O)(O)O)NC(=O)[C@@H](NC(=O)[C@@H](NC(=O)[C@H](CCCNC(=N)N)NC(=O)[C@H](CC(C)C)NC(=O)[C@H](CO)NC(=S)Nc1ccc2c(c1)C(=O)OC21c2ccc(O)cc2Oc2cc(O)ccc21)[C@@H](C)O)C(C)C)C(=O)NCC(=O)N[C@@H](C)C(=O)NCC(=O)N[C@@H](C)C(=O)N[C@@H](Cc1c[nH]c2ccccc12)C(=O)N[C@@H](CC(C)C)C(=O)N[C@H](C(=O)N1CCC[C@H]1C(=O)N[C@@H](CCCNC(=N)N)C(=O)O)C(C)C | YWHAG (Homo sapiens, UniProt P61981) | binding, fluorescence anisotropy | pH 7.5, FITC-labelled phosphopeptide titration | 4.76 |
| CC[C@H](C)[C@H](NC(=O)[C@H](CNC(=O)COCCNC(=O)CN(CCNC(=O)CN(CCNC(=O)CN(CCNC(=O)CN(CCNC(=O)[C@H](CCCNC(=N)N)NC(C)=O)C(=O)Cn1ccc(N)nc1=O)C(=O)Cn1cnc2c(=O)[nH]c(N)nc21)C(=O)Cn1cnc2c(=O)[nH]c(N)nc21)C(=O)Cn1ccc(N)nc1=O)NC(=O)[C@H](C)NC(=O)[C@H](CCCNC(=N)N)NC(=O)[C@H](CCCCN)NC(=O)[C@H](CCC(N)=O)NC(=O)[C@H](CCC(N)=O)NC(=O)[C@H](CC(N)=O)NC(=O)[C@@H](NC(=O)[C@H](CC(C)C)NC(=O)[C@H](CC(N)=O)NC(=O)[C@@H]1CCCN1C(=O)[C@H](CC(=O)O)NC(=O)[C@H](CC(C)C)NC(=O)[C@H](C)NC(=O)[C@H](C)NC(=O)[C@H](CCC(=O)NCC(=O)NCCN(CC(=O)NCCN(CC(=O)NCCN(CC(=O)NCCN(CC(=O)N[C@@H](CCCNC(=N)N)C(N)=O)C(=O)Cn1cnc2c(=O)[nH]c(N)nc21)C(=O)Cn1ccc(N)nc1=O)C(=O)Cn1ccc(N)nc1=O)C(=O)Cn1cnc2c(=O)[nH]c(N)nc21)NC(=O)[C@H](Cc1c[nH]c2ccccc12)NC(=O)[C@H](Cc1ccc(O)cc1)NC(=O)[C@H](CCCNC(=N)N)NC(=O)[C@H](CC(N)=O)NC(=O)[C@H](CCCNC(=N)N)NC(=O)[C@H](CCSC)NC(=O)[C@H](CCC(=O)O)NC(=O)[C@H](CCCCN)NC(=O)[C@H](CO)NC(=O)[C@H](Cc1ccccc1)NC(C)=O)[C@@H](C)O)C(=O)N[C@@H](CCCNC(=N)N)C(=O)N[C@@H](CO)C(=O)N[C@H](C(=O)N[C@@H](Cc1ccc(O)cc1)C(=O)N[C@@H](CCC(=O)O)C(=O)N[C@@H](CCC(=O)O)C(=O)NCC(=O)N[C@@H](CCC(=O)O)C(N)=O)[C@@H](C)CC | ERBB2 (Homo sapiens, UniProt P04626) | binding, SPR | – | 8.05 |
| C[C@H](N)C(=O)N[C@@H](CCCNC(=N)N)C(=O)N[C@H](C(=O)N[C@@H](CCCCN(C)C)C(=O)N[C@@H](CCC(N)=O)C(=O)N[C@H](C(=O)N[C@@H](C)C(=O)N[C@@H](CCCNC(=N)N)C(=O)N[C@@H](CCCCN)C(=O)N[C@@H](CO)C(=O)N[C@H](C(=O)NCC(=O)NCC(=O)N[C@@H](CCCCN)C(=O)N[C@@H](C)C(N)=O)[C@@H](C)O)[C@@H](C)O)[C@@H](C)O | Polycomb protein Sfmbt (Sfmbt, Drosophila melanogaster, UniProt Q9VK33) | fluorescence polarization | pH 8.0 | 5.47 |
| CC(C)C[C@H](NC(=O)[C@H](CCC(N)=O)NC(=O)[C@H](CCCNC(=N)N)NC(=O)[C@@H](N)CS)C(=O)N[C@@H](CCCNC(=N)N)C(=O)N[C@@H](CCCCN)C(=O)NCC(=O)N[C@@H](CCCCN)C(=O)N[C@@H](Cc1ccccc1)C(=O)N[C@@H](Cc1ccccc1)C(=O)N[C@@H](CO)C(=O)N[C@@H](CCC(=O)O)C(=O)NCC(=O)NCC(=O)N[C@@H](CO)C(=O)NCC(=O)NCC(=O)N[C@H](C(=O)N[C@@H](CO)C(=O)N[C@@H](Cc1ccccc1)C(=O)N[C@@H](CCC(=O)O)C(=O)N[C@@H](CCC(N)=O)C(=O)N[C@@H](Cc1ccccc1)C(=O)N[C@@H](Cc1c[nH]c2ccccc12)C(=O)N[C@@H](C)C(=O)N[C@@H](Cc1c[nH]c2ccccc12)C(=O)N[C@@H](CC(C)C)C(=O)N[C@@H](Cc1c[nH]c2ccccc12)C(=O)N1CCC[C@H]1C(=O)O)[C@@H](C)O | PAK4 (Homo sapiens, UniProt O96013) | fluorescence polarization | added: rhodamine-labeled peptide | 6.34 |
| NCC(O)(c1ccccc1)c1ccccc1 | Beta-lactamase (ampC, Escherichia coli K-12, UniProt P00811) | – | – | 2.66 |
| C(#C[P+](c1ccccc1)(c1ccccc1)c1ccccc1)c1ccccc1 | Heat shock 70 kDa protein 1A, substrate-bound (HSPA1A, Homo sapiens, UniProt P0DMV8) | ITC | ADP-bound, NRLLLTG pre-incubated | ~4.55 |
| C[C@H](N)C(=O)N[C@@H](CCCNC(=N)N)C(=O)N[C@H](C(=O)N[C@@H](CCCC[N+](C)(C)C)C(=O)N[C@@H](CCC(N)=O)C(=O)N[C@H](C(=O)N[C@@H](C)C(=O)N[C@@H](CCCNC(=N)N)C(=O)N[C@@H](CCCCN)C(=O)N[C@@H](CO)C(=O)N[C@H](C(=O)NCC(N)=O)[C@@H](C)O)[C@@H](C)OP(=O)(O)O)[C@@H](C)O | V(D)J recombination-activating protein 2, PHD finger (Rag2, Mus musculus, UniProt P21784) | binding, isothermal titration calorimetry | pH 7.2, histone H3 peptide | < 3.32 |
